Experimental data pooled from the literature.
± marks the error that the study gave.
Mapk1: Mitogen-activated protein kinase 1 (Mapk1, Rattus norvegicus, UniProt P63086)
Sequence of UniProt P63086 (whole entry, looked up): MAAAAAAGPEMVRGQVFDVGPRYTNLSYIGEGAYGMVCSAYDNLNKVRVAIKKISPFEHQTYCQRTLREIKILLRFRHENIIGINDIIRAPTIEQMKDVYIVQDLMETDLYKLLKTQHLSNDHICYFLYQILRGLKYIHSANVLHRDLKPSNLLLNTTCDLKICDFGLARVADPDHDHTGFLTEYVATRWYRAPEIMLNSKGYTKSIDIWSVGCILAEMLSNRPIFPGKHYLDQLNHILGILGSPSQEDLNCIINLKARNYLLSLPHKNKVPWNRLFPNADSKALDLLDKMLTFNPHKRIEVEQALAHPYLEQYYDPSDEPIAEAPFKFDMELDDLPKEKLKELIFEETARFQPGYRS
PFF0160c E182D: Dihydroorotate dehydrogenase (quinone), mitochondrial (PFF0160c, Plasmodium falciparum, UniProt Q08210, E182D)
CA1: Carbonic anhydrase 1 (CA1, Homo sapiens, UniProt P00915)
Sequence of UniProt P00915 (whole entry, looked up): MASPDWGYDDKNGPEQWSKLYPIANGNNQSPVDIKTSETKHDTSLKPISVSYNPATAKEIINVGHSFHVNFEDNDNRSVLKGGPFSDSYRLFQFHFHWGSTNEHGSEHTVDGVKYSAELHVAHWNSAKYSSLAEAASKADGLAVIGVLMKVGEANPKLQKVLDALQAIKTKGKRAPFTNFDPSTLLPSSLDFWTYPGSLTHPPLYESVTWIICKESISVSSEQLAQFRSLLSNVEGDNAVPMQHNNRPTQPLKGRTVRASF
Sequence of UniProt Q9HB89 (whole entry, looked up): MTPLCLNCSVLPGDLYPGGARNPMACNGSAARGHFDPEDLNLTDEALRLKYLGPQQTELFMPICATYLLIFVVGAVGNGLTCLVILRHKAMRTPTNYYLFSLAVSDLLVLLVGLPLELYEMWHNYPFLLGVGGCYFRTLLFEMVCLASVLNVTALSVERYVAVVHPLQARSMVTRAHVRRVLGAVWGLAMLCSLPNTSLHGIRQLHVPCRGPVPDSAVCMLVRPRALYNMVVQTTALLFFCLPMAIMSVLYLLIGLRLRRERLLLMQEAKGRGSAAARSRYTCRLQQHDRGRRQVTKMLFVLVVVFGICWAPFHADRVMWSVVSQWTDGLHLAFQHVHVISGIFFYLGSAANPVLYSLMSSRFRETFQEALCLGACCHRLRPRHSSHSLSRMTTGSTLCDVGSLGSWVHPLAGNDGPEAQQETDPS
Sequence of UniProt Q08638 (whole entry, looked up): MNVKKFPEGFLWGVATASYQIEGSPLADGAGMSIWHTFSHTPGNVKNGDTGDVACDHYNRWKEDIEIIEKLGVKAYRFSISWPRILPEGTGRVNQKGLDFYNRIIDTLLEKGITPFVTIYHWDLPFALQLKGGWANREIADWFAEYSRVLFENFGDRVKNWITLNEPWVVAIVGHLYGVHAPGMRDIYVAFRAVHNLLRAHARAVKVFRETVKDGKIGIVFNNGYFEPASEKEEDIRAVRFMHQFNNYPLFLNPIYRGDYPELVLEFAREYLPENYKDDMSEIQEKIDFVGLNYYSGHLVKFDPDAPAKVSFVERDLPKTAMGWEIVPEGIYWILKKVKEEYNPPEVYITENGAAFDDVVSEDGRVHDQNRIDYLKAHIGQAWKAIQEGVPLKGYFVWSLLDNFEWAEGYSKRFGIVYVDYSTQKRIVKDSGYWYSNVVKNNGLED
Sequence of UniProt Q9BV23 (whole entry, looked up): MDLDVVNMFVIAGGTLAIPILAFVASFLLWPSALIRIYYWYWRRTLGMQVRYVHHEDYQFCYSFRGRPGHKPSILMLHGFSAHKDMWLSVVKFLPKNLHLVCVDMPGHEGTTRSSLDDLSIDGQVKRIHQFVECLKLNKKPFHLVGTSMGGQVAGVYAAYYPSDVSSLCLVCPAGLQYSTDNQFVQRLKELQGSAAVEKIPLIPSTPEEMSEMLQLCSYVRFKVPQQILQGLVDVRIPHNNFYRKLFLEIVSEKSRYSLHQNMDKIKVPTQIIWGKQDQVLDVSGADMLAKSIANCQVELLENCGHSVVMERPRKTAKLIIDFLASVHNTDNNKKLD
Sequence of UniProt Q9ULC6 (whole entry, looked up): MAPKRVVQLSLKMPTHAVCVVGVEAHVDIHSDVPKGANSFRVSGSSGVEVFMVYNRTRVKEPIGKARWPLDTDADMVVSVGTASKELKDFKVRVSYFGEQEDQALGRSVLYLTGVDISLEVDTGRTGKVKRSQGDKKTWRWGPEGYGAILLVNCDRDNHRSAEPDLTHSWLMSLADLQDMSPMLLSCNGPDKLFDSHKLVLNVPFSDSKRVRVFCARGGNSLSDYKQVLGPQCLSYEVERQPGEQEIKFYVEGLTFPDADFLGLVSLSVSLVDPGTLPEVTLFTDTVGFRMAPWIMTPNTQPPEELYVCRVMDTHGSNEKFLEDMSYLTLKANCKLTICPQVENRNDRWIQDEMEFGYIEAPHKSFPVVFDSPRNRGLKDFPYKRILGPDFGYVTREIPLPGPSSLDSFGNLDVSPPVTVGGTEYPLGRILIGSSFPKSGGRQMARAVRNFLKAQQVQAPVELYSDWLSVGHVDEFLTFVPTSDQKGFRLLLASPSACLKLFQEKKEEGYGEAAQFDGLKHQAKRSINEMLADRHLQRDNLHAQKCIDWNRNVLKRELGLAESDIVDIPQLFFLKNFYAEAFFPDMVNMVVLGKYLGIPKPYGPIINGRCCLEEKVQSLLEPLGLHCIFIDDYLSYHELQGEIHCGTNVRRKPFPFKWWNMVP
Sequence of UniProt P06276 (whole entry, looked up): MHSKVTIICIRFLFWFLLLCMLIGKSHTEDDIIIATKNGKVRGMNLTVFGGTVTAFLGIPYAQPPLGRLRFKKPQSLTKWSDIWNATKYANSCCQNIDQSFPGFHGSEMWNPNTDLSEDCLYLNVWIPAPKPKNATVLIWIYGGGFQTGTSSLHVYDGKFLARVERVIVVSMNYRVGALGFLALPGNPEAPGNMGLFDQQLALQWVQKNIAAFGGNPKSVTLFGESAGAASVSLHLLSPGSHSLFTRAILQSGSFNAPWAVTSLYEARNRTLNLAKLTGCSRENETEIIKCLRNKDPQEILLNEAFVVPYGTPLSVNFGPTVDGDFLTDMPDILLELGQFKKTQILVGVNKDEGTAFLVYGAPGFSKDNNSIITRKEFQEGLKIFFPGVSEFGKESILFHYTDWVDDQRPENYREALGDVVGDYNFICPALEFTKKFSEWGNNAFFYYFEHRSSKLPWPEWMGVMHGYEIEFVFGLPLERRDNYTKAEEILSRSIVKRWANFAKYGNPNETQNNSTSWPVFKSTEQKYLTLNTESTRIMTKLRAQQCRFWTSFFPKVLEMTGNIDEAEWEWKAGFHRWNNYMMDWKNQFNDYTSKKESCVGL
Sequence of UniProt P23739 (whole entry, looked up): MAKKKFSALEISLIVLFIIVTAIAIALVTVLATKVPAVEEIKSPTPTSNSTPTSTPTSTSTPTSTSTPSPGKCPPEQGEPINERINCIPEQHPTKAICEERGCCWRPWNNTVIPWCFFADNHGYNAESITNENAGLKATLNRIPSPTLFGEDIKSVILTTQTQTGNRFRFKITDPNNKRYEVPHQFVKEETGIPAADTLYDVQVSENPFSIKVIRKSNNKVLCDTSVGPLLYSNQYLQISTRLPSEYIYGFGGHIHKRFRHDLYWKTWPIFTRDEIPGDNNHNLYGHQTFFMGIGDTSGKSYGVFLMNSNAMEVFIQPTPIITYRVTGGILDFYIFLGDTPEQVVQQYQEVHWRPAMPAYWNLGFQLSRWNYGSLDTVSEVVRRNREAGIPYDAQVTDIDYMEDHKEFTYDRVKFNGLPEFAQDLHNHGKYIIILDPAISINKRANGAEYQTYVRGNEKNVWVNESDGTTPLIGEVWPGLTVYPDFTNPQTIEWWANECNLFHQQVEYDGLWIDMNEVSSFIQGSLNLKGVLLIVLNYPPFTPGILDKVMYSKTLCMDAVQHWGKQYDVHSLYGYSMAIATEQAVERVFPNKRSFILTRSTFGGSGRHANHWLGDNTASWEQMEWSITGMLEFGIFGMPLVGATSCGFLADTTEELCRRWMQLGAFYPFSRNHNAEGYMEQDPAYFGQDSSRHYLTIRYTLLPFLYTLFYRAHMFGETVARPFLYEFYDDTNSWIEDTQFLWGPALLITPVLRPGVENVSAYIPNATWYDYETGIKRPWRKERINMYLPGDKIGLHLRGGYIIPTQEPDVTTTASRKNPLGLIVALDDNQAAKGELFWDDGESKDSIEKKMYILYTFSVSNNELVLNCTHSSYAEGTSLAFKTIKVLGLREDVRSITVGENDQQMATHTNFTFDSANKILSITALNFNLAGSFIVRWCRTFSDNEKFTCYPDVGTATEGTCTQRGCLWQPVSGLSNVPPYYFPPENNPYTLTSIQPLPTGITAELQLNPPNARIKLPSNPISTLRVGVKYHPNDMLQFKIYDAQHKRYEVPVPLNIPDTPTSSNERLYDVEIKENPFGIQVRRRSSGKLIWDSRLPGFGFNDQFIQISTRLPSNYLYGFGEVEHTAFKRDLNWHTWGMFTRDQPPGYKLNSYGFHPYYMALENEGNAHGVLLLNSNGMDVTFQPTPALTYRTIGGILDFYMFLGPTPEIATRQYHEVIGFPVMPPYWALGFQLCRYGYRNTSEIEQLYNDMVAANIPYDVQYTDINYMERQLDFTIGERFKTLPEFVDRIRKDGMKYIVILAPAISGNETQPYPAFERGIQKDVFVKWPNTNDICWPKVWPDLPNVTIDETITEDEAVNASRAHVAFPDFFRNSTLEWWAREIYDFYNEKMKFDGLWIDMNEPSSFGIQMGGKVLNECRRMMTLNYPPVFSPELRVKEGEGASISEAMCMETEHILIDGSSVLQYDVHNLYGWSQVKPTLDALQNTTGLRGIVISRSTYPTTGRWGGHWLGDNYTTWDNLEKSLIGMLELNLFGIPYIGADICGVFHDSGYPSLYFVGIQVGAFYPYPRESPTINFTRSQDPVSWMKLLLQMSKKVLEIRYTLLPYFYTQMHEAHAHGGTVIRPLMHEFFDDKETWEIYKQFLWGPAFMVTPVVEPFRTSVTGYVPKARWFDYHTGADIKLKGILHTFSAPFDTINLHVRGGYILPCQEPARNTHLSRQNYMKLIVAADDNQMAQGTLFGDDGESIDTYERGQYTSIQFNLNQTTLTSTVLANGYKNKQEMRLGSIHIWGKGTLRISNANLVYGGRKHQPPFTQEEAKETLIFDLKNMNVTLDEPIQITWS

OC[C@@H]1[C@@H](O)[C@H](O)[C@@H](O)[C@H]2N[C@@H]12 — IC50 (bglA (Thermotoga maritima, UniProt Q08638); enzyme activity, inhibitor; pH 6.8, with preincubation): 30.6 µM
CCc1ccc(S(=O)(=O)Nc2cc(F)c(C3CC3)cc2Cl)cc1S(=O)(=O)F — IC50 (GTPase KRas, with RAF (KRAS, Homo sapiens, UniProt P01116); RAF-KRAS interaction, inhibitor, NanoBRET; HEK293T; 24 h): 37 ± 17 µM
O=C(O)CCn1c(=O)oc2cc(Cl)c(Cl)cc21 — IC50 (Tyrosine-protein kinase Lck (LCK, Homo sapiens, UniProt P06239); enzyme activity, inhibitor): > 31.6 µM
CC[C@H](C)[C@H](NC(=O)[C@H](CCCNC(=N)N)NC(=O)[C@H](C)NC(=O)[C@H](CS)NC(=O)[C@H](CCCNC(=N)N)NC(=O)[C@H](CO)NC(=O)CNC(=O)[C@H](C)NC(=O)[C@@H](N)Cc1ccc(O)cc1)C(=O)N[C@@H](Cc1ccccc1)C(=O)N[C@@H](CCCNC(=N)N)C(=O)N[C@@H](CC(C)C)C(=O)N[C@H](C(=O)N[C@@H](CC(C)C)C(=O)N[C@@H](CCC(N)=O)C(=O)N[C@@H](CCCCN)C(=O)O)C(C)C — IC50 (Mapk1; enzyme activity, inhibitor, fluorescence; pH 7.4): 18.1 µM
Cc1nc2ccc(-c3ccc(OC(F)(F)F)cc3)cc2c(O)c1C#N — IC50 (PFF0160c E182D; enzyme activity, inhibitor, absorbance): 1.79 µM
Cc1[nH]c2ccccc2c1CCNC(=O)c1ccccc1F — IC50 (ARP2/ARP3 (Saccharomyces cerevisiae, UniProt P32381+P47117); actin polymerization, pyrenyl-actin; together with: ARP2/ARP3 5 nM): 12 µM
O=C(c1cc(Cc2n[nH]c(=O)c3ccccc23)ccc1F)N1CC(CNC2CC2)C1 — IC50 (Protein mono-ADP-ribosyltransferase PARP10 (PARP10, Homo sapiens, UniProt Q53GL7); enzyme activity, inhibitor): > 10 µM
COc1cc(C[C@H](C)[C@H](C)Cc2ccc3c(c2)OCO3)ccc1O — IC50 (Cholinesterase (BCHE, Homo sapiens, UniProt P06276); enzyme activity, inhibitor, Ellman): > 100 µM
CC(C)C[C@H](NC(=O)[C@H](CC(C)C)NC(=O)[C@H](CC(C)C)NC(=O)[C@H](CCCNC(=N)N)NC(=O)[C@H](CCCCN)NC(=O)[C@@H]1CCCN1C(=O)[C@H](CCCCN)NC(=O)[C@@H]1CCCN1C(=O)CNC(=O)[C@H](CCCNC(=N)N)NC(=O)[C@H](CCCCN)NC(=O)[C@H](CCCNC(=N)N)NC(=O)[C@H](C)NC(=O)[C@@H](N)Cc1ccc(O)cc1)C(=O)N[C@@H](CCC(N)=O)C(=O)N[C@@H](CCCNC(=N)N)C(=O)O — IC50 (Mapk1; enzyme activity, inhibitor, fluorescence; pH 7.4): 4.22 µM
CCC(C(=O)Nc1ccccc1C)n1c(SCc2ccc(F)cc2)nc2ncccc21 (centres unmarked) — IC50 (Calpain-1 catalytic subunit (CAPN1, Homo sapiens, UniProt P07384); enzyme activity): > 100 µM
C[C@@H]1COCCN1c1nc(NCc2cccnc2C(F)(F)F)c2cccnc2n1 — IC50 (A-type voltage-gated potassium channel KCND3 (KCND3, Homo sapiens, UniProt Q9UK17); ion current, inhibitor): > 33 µM
COC(=O)Cc1cc2c(cc1C(=O)c1cccc(Br)c1)OCO2 — IC50 (Glutamate receptor AMPA 1/2 (Gria1/Gria2, Rattus norvegicus, UniProt P19490+P19491); ion current, patch clamp): 5.41 µM
COc1ccccc1-n1c(SCC(=O)Nc2ccccc2F)nc2cccnc21 — IC50 (PFF0160c E182D; enzyme activity, inhibitor, absorbance): 9.97 µM
Cc1[nH]c(C)c(S(=O)(=O)NC(C)(C)C)c1C(=O)N1CCCC1 — IC50 (D(3) dopamine receptor (DRD3, Homo sapiens, UniProt P35462); β-arrestin recruitment, antagonist, PathHunter; together with: dopamine EC80): > 100 µM
CCN(N=Cc1cnc2ccc(Br)cn12)S(=O)(=O)c1cc([N+](=O)[O-])ccc1C — IC50 (Phosphatidylinositol 4,5-bisphosphate 3-kinase catalytic subunit beta isoform (PIK3CB, Homo sapiens, UniProt P42338, M783K); enzyme activity, inhibitor): 0.55 µM
Cc1ccc(C2=CCC(C)(C)c3ccc(C(=O)Nc4ccc(C(=O)O)cc4)cc32)cc1 — IC50 (Retinoic acid receptor beta (RARB, Homo sapiens, UniProt P10826)): 2.6 µM
CC(C)N1CCCCC1C(=O)NC(Cc1ccc(-c2ccccc2)cc1)B(O)O (centres unmarked) — IC50 (Proteasome subunit beta type-9 / Proteasome subunit beta type-10 (Homo sapiens, UniProt P28065+P40306); β1i activity, inhibitor; immunoproteasome, together with: Ac-PAL-AMC): > 10 µM
Cc1cc(O)c2c(c1)OC(C)(C)c1ccc(C)cc1-2 — IC50 (Sucrase-isomaltase, intestinal (Si, Rattus norvegicus, UniProt P23739); enzyme activity, inhibitor, absorbance): 590 µM
CC12CCC3C4CCC(C#N)CC4CCC3C1CCC2O (centres unmarked) — IC50 (Androgen receptor (AR, Homo sapiens, UniProt P10275); nuclear translocation, antagonist): 0.16 µM
C=C1NC(=O)[C@H](CO)NC(=O)[C@H](CSCC(N)=O)NC(=O)CNC(=O)[C@H](Cc2ccc(O)cc2)NC(=O)[C@H](C)NC(=O)[C@H](CO)NC(=O)[C@H](CC(=O)O)NC(=O)CNC(=O)[C@H](CC(C)C)NC(=O)[C@H](Cc2c[nH]c3ccccc23)NC(=O)[C@H](Cc2c[nH]c3ccccc23)NC(=O)c2ccc(-c3nc(C(=O)OC)cs3)nc2-c2csc1n2 — IC50 (TRAF2 and NCK-interacting protein kinase (TNIK, Homo sapiens, UniProt Q9UKE5); enzyme activity, inhibitor, ADP detection): 2 µM
CCCCCCCCCCCCCCCCCC(=O)NC[C@H]1CC[C@H](C(=O)N[C@@H](CCC(=O)NCCCOCCOCCOCCCNC(=O)COCC(=O)N[C@@H](Cc2ccc(O)cc2)C(=O)NC(C)(Cc2ccccc2)C(=O)N[C@@H](CC(C)C)C(=O)N[C@@H](CCCC)C(=O)N[C@@H](CCCNC(=N)N)C(=O)N2CCC[C@H]2C(=O)N[C@@H](CCCNC(=N)NC)C(=O)N[C@@H](CC(N)=O)C(N)=O)C(=O)O)CC1 (some centres unmarked) — IC50 (Neuromedin-U receptor 1 (NMUR1, Homo sapiens, UniProt Q9HB89); β-arrestin recruitment, antagonist, PathHunter luminescence; 30 min preincubation, together with: 0.3 nM human NMU-25): 0.029 µM
Cc1ccc(S(=O)(=O)Oc2ccc(/C=N/NS(=O)(=O)c3ccc(Cl)cc3)cc2)cc1 — IC50 (CA1; enzyme activity, inhibitor, absorbance): 0.016 µM
CC[C@H](C)[C@H](NC(=O)[C@H](Cc1ccccc1)NC(=O)[C@H](CC(C)C)NC(=O)[C@@H]1CCCN1C(=O)[C@H](CCC(=O)O)NC(=O)[C@@H]1CCCN1C(=O)[C@H](CCCNC(=N)N)NC(=O)[C@H](Cc1c[nH]cn1)NC(=O)[C@H](CCCNC(=N)N)NC(=O)[C@H](Cc1ccccc1)NC(=O)[C@H](CCCCN)NC(=O)[C@H](CCCCN)NC(=O)[C@H](C)NC(=O)[C@@H](N)Cc1ccc(O)cc1)C(=O)N1CCC[C@H]1C(=O)N1CCC[C@H]1C(=O)O — IC50 (Mapk1; enzyme activity, inhibitor, fluorescence; pH 7.4): 5.27 µM
N[C@H](C(=O)N1CCCC1)C1CCN(c2nccc3c(-c4ncc(Cl)cc4Cl)cccc23)CC1 — IC50 (Protein-arginine deiminase type-1 (PADI1, Homo sapiens, UniProt Q9ULC6); enzyme activity, inhibitor): 0.11 µM
CC(C)C[C@H](NC(=O)[C@H](CO)NC(=O)[C@H](CC(C)C)NC(=O)[C@H](CCCCN)NC(=O)[C@@H]1CCCN1C(=O)[C@H](CCCCN)NC(=O)[C@H](CCCCN)NC(=O)[C@H](CCCCN)NC(=O)[C@H](CCCNC(=N)N)NC(=O)[C@H](CO)NC(=O)[C@H](CS)NC(=O)[C@H](CCCCN)NC(=O)[C@H](C)NC(=O)[C@@H](N)Cc1ccc(O)cc1)C(=O)N[C@@H](CCCCN)C(=O)N[C@@H](C)C(=O)O — IC50 (Mapk1; enzyme activity, inhibitor, fluorescence; pH 7.4): 14.3 µM
O=C(Oc1ccc([N+](=O)[O-])cc1)N1CCN(Cc2cccc(Oc3ccccc3)c2)CC1 — IC50 (Monoacylglycerol lipase ABHD6 (ABHD6, Homo sapiens, UniProt Q9BV23); enzyme activity, inhibitor; together with: FP-biotin 1 µM): 0.055 µM
CC(C)C[C@H](NC(=O)[C@H](CCCNC(=N)N)NC(=O)[C@H](CC(C)C)NC(=O)[C@@H](NC(=O)[C@H](CC(N)=O)NC(=O)[C@H](CCCCN)NC(=O)[C@H](CCCCN)NC(=O)[C@H](CCCNC(=N)N)NC(=O)[C@H](CCCCN)NC(=O)[C@@H](NC(=O)[C@H](CCCCN)NC(=O)[C@H](CCC(=O)O)NC(=O)[C@H](C)NC(=O)[C@@H](N)Cc1ccc(O)cc1)C(C)C)C(C)C)C(=O)N[C@@H](CS)C(=O)N[C@@H](CS)C(=O)O — IC50 (Mapk1; enzyme activity, inhibitor, fluorescence; pH 7.4): 17.6 µM
Cc1ccc(N2CC3CC(C2)N3)cc1C(=O)NC1(c2ccc3c4c(cccc24)C(=O)N3C)CC1 — IC50 (Cytochrome P450 1A2 (CYP1A2, Homo sapiens, UniProt P05177); enzyme activity, inhibitor): 14.8 µM
CC[C@H](C)[C@H](NC(=O)[C@H](Cc1ccccc1)NC(=O)[C@@H](NC(=O)[C@H](CCCNC(=N)N)NC(=O)[C@H](CC(C)C)NC(=O)[C@H](CCCCN)NC(=O)[C@H](CCCNC(=N)N)NC(=O)[C@H](CCCCN)NC(=O)[C@H](CCC(N)=O)NC(=O)[C@H](CCCCN)NC(=O)[C@@H](NC(=O)[C@@H]1CCCN1C(=O)[C@H](C)NC(=O)[C@@H](N)Cc1ccc(O)cc1)[C@@H](C)CC)[C@@H](C)CC)C(=O)N[C@@H](CO)C(=O)N[C@@H](CC(N)=O)C(=O)O — IC50 (Mapk1; enzyme activity, inhibitor, fluorescence; pH 7.4): 7.02 µM
O=S(=O)(N/N=C/c1ccc(OS(=O)(=O)c2ccc(Cl)cc2)cc1)c1cc(Cl)ccc1Cl — IC50 (CA1; enzyme activity, inhibitor, absorbance): 0.0228 µM
CC[C@H](C)[C@H](NC(=O)[C@@H](NC(=O)[C@H](CC(C)C)NC(=O)[C@H](CCCCN)NC(=O)[C@H](CCCCN)NC(=O)[C@H](Cc1c[nH]cn1)NC(=O)[C@@H](NC(=O)[C@H](CCCNC(=N)N)NC(=O)[C@H](CCCCN)NC(=O)[C@H](CC(C)C)NC(=O)[C@H](CCC(N)=O)NC(=O)[C@H](CCCCN)NC(=O)[C@H](C)NC(=O)[C@@H](N)Cc1ccc(O)cc1)[C@@H](C)O)[C@@H](C)O)C(=O)N[C@@H](CC(N)=O)C(=O)N1CCC[C@H]1C(=O)O — IC50 (Mapk1; enzyme activity, inhibitor, fluorescence; pH 7.4): 68.2 µM
CC(C)C[C@H](NC(=O)[C@H](CC(=O)O)NC(=O)[C@H](C)N)C(=O)N1CCC[C@H]1C(=O)N[C@@H](Cc1ccccc1)C(=O)N[C@@H](C)C(=O)N[C@@H](Cc1ccccc1)C(N)=O — IC50 (Transcriptional regulator PlcR (Bacillus thuringiensis, UniProt A0ACM8Q0N2); reporter gene, inhibitor, lacZ reporter; 407 Cry−): 1.7 ± 0.111 µM

Some of these lines once more:
CC12CCC3C4CCC(C#N)CC4CCC3C1CCC2O (centres unmarked) — IC50 (Androgen receptor (AR, Homo sapiens, UniProt P10275); nuclear translocation, antagonist): 0.16 µM
C=C1NC(=O)[C@H](CO)NC(=O)[C@H](CSCC(N)=O)NC(=O)CNC(=O)[C@H](Cc2ccc(O)cc2)NC(=O)[C@H](C)NC(=O)[C@H](CO)NC(=O)[C@H](CC(=O)O)NC(=O)CNC(=O)[C@H](CC(C)C)NC(=O)[C@H](Cc2c[nH]c3ccccc23)NC(=O)[C@H](Cc2c[nH]c3ccccc23)NC(=O)c2ccc(-c3nc(C(=O)OC)cs3)nc2-c2csc1n2 — IC50 (TRAF2 and NCK-interacting protein kinase (TNIK, Homo sapiens, UniProt Q9UKE5); enzyme activity, inhibitor, ADP detection): 2 µM
CCCCCCCCCCCCCCCCCC(=O)NC[C@H]1CC[C@H](C(=O)N[C@@H](CCC(=O)NCCCOCCOCCOCCCNC(=O)COCC(=O)N[C@@H](Cc2ccc(O)cc2)C(=O)NC(C)(Cc2ccccc2)C(=O)N[C@@H](CC(C)C)C(=O)N[C@@H](CCCC)C(=O)N[C@@H](CCCNC(=N)N)C(=O)N2CCC[C@H]2C(=O)N[C@@H](CCCNC(=N)NC)C(=O)N[C@@H](CC(N)=O)C(N)=O)C(=O)O)CC1 (some centres unmarked) — IC50 (Neuromedin-U receptor 1 (NMUR1, Homo sapiens, UniProt Q9HB89); β-arrestin recruitment, antagonist, PathHunter luminescence; 30 min preincubation, together with: 0.3 nM human NMU-25): 0.029 µM
